Measured values collected from several papers.
Each line is one published result; not all experiments were run side by side. “And” joins repeats or separate records; there may be more than shown. Numbers after ± are the reported error.
MCOLN3: Mucolipin-3 (MCOLN3, Homo sapiens, UniProt Q8TDD5)
Chain of UniProt Q8TDD5 (whole entry, looked up): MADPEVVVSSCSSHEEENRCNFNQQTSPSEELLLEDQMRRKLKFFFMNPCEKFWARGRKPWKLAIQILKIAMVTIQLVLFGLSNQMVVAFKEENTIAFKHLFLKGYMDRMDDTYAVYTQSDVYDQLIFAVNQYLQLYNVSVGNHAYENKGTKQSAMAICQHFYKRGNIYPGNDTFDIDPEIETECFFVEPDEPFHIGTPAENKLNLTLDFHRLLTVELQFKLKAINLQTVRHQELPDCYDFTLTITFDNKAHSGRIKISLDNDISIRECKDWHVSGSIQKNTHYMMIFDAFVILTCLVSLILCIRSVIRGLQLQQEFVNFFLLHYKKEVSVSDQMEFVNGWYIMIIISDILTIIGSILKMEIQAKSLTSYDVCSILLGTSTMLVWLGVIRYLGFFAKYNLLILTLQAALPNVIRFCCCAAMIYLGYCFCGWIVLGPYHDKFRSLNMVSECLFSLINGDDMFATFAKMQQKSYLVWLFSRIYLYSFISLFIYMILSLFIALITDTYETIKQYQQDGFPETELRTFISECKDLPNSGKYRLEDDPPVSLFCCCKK
TRPV1: Transient receptor potential cation channel subfamily V member 1 (TRPV1, Homo sapiens, UniProt Q8NER1)
Chain of UniProt Q8NER1 (whole entry, looked up): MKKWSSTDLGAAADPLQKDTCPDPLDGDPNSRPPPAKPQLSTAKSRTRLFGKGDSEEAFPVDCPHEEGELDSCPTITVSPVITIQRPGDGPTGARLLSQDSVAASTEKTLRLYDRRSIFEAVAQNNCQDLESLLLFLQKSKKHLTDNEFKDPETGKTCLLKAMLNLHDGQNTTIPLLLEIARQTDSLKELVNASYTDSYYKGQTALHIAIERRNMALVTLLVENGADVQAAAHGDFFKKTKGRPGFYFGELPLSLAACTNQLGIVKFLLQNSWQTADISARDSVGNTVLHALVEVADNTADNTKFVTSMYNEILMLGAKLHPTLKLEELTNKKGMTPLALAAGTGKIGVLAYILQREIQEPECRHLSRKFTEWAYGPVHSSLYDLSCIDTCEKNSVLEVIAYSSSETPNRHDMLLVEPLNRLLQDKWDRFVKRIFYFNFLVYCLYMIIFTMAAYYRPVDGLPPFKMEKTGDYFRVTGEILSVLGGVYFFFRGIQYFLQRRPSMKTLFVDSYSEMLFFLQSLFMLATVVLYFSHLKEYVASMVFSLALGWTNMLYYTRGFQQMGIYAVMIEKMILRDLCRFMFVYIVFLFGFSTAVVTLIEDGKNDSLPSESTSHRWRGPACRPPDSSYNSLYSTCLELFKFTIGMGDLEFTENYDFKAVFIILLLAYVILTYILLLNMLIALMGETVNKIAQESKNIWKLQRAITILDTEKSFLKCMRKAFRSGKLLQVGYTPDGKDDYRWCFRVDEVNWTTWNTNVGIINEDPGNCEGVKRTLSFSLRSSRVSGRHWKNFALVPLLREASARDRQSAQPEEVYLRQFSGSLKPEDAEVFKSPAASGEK
fMet-Leu-Phe receptor: fMet-Leu-Phe receptor (Mus musculus, UniProt P33766)
Chain of UniProt P33766 (whole entry, looked up): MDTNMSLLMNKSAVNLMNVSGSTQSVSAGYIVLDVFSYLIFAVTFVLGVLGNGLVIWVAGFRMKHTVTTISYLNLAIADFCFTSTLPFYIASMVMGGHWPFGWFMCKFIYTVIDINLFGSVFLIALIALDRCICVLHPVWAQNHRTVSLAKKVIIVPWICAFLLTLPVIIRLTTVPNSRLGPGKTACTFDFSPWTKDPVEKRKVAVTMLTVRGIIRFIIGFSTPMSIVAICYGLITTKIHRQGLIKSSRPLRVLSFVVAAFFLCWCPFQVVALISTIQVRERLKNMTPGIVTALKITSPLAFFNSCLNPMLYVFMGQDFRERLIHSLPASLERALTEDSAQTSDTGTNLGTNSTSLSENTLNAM
Vcp: Transitional endoplasmic reticulum ATPase (Vcp, Mus musculus, UniProt Q01853)
Chain of UniProt Q5NUL3 (whole entry, looked up): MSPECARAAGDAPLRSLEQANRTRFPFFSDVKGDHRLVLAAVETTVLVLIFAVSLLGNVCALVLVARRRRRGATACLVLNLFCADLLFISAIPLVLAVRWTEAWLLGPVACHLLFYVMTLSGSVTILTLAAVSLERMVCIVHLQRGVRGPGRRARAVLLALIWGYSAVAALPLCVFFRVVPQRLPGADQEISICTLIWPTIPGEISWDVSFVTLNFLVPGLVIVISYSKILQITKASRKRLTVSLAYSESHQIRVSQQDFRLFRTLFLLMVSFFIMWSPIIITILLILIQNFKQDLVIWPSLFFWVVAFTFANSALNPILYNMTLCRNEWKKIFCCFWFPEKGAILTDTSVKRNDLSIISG
Chain of UniProt Q01853 (whole entry, looked up): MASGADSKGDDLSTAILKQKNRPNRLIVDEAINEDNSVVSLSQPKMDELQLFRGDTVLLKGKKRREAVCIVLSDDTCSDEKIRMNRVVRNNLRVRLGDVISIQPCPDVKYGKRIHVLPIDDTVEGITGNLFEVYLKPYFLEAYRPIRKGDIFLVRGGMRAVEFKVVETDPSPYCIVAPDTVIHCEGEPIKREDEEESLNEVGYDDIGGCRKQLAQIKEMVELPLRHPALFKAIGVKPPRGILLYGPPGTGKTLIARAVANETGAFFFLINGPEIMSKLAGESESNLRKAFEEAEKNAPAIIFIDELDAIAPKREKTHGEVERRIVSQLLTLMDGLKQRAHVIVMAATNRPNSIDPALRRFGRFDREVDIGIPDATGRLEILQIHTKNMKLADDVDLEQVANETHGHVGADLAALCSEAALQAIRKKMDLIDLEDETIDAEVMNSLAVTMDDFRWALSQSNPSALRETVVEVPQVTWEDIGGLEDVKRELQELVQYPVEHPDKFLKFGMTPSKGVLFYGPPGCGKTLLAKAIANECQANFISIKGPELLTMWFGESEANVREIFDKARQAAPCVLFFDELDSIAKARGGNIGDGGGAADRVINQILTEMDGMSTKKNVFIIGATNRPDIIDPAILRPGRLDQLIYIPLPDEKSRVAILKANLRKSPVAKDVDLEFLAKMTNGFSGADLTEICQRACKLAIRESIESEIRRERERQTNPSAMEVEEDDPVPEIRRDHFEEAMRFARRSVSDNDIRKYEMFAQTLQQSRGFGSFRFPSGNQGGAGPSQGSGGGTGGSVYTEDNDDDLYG
Chain of UniProt P56373 (whole entry, looked up): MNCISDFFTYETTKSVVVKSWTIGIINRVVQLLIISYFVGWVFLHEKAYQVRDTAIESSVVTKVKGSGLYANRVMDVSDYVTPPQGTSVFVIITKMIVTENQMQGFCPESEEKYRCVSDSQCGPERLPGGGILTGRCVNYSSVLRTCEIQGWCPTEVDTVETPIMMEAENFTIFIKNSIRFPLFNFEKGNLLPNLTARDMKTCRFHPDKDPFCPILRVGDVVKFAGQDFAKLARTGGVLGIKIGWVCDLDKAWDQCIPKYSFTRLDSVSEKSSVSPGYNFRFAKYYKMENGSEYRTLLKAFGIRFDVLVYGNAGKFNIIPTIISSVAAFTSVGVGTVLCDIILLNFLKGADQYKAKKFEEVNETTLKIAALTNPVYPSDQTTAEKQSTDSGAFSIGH
Chain of UniProt Q9GZU1 (whole entry, unmodified, looked up): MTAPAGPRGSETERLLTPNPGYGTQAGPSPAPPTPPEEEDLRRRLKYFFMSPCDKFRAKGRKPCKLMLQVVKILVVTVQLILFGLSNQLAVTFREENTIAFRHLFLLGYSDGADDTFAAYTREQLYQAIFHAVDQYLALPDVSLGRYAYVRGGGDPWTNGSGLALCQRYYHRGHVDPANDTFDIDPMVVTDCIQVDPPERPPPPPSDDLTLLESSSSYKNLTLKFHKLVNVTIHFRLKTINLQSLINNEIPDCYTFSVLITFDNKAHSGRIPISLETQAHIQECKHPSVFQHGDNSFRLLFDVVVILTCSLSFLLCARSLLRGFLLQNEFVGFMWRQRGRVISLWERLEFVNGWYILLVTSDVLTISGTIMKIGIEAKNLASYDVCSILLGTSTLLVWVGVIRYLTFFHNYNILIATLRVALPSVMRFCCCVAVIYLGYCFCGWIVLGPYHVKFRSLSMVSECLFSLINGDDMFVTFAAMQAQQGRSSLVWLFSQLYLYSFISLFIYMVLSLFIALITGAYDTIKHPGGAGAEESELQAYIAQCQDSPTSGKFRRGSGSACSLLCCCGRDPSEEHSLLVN
Chain of UniProt Q04609 (whole entry, looked up): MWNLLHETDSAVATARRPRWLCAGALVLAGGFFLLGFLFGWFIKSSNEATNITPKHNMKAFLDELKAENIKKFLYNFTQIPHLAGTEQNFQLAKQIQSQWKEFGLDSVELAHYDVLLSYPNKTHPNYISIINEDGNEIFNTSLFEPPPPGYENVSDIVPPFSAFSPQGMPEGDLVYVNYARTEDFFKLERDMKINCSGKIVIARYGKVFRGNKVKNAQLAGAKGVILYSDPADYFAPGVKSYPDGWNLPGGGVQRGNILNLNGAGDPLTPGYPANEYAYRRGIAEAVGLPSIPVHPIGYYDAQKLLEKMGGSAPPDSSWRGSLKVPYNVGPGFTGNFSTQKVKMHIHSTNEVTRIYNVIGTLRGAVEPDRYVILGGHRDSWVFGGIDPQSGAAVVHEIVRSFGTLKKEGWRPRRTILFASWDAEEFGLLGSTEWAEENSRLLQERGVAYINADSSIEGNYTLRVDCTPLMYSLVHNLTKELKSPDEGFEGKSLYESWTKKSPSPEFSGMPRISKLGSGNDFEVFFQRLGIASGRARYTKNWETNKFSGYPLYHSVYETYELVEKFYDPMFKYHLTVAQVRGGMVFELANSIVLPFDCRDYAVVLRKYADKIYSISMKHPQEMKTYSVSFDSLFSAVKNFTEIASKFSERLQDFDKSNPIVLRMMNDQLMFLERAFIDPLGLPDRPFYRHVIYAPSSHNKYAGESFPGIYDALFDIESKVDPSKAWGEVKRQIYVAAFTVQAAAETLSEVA
Chain of UniProt Q8NE86 (whole entry, looked up): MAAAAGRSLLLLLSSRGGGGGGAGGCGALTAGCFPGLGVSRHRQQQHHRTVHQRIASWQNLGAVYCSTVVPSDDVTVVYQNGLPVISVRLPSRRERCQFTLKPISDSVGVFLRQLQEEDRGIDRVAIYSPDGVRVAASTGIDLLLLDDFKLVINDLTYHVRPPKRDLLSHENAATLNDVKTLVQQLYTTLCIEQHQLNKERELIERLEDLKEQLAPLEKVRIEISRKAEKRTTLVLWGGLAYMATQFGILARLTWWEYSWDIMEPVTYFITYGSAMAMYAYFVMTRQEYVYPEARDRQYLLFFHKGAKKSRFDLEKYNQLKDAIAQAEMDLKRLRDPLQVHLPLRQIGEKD

CCOc1ccc(S(=O)(=O)NC(C)(C)C)cc1-c1nc(O)c2c(n1)c(C(C)(C)C)nn2C — EC50 (MCOLN3; calcium flux, agonist, Fluo-8 calcium; HEK293 expressing TRPML3): 0.88 µM and < 1 µM
Cc1cc(OCCCS(C)(=O)=O)cc(C)c1-c1cccc(COc2ccc3c(c2)OC[C@H]3CC(=O)O)c1 — EC50 (FFAR4 (Homo sapiens, UniProt Q5NUL3); agonist, dynamic mass redistribution; CHO cells expressing FFA4; 5 min): > 20 µM
NCCCNCCCCNCCCN — EC50 (MCU/MICU1, with EMRE and MICU2 (Homo sapiens, UniProt Q8NE86+Q9BPX6); mitochondrial calcium uptake, activator, Fluo-4 fluorescence; permeabilized HEK293; pH 7.2, added: 5 mM succinate): 201 µM
Cc1ccc(C(C)C)cc1O — EC50 (TRPV3 (Homo sapiens, UniProt Q8NET8); ion current, agonist, patch clamp): 180 µM
CCCOc1cc(C)c(Cl)cc1S(=O)(=O)N(CC)CC — EC50 (MCOLN3; calcium flux, agonist, Fluo-8 calcium; HEK293 expressing TRPML3): 4.79 ± 1.09 µM
CC1CC(C)(C)N(C(=O)CN2C(=O)c3ccccc3C2=O)c2ccccc21 (stereo not drawn) — EC50 (Mucolipin-1 (MCOLN1, Homo sapiens, UniProt Q9GZU1, L15A/L16A); ion current, agonist, whole-cell patch clamp; HEK293 tetracycline-inducible; pH 4.6, added: extracellular Ca2+ 1.5 mM): 9.7 µM
CCCC(=O)OC[C@H](COP(=O)(O)O[C@@H]1[C@H](O)[C@H](O)[C@@H](OP(=O)(O)O)[C@H](OP(=O)(O)O)[C@H]1O)OC(=O)CCC — EC50 (Arf-GAP with SH3 domain, ANK repeat and PH domain-containing protein 1, PH domain (Asap1, Mus musculus, UniProt Q9QWY8); tryptophan fluorescence; pH 7.4): 120 µM
Nc1ncnc2c1ncn2[C@@H]1O[C@H](COP(=O)(O)OP(=O)(O)OP(=O)(O)O)[C@@H](O)[C@H]1O — EC50 (P2X purinoceptor 3, with TMEM163 (P2RX3, Homo sapiens, UniProt P56373); ion current, agonist, two-electrode voltage clamp; Xenopus oocytes; holding potential -30 mV, added: TMEM163 co-expression): 0.26 ± 0.03 µM
CC1CCN(c2nc(C(F)(F)F)ccc2CCNC(=O)C(C)c2ccc(NS(C)(=O)=O)c(F)c2)CC1 (stereo not drawn) — EC50 (TRPV1; 45Ca2+ uptake, agonist; CHO expressing human TRPV1; baseline: capsaicin 1 µM maximal response): > 3 µM
Nc1nc2c(ncn2[C@@H]2O[C@@H]3COP(=O)(O)O[C@H]3[C@H]2O)c(=O)[nH]1 — EC50 (Cnga2 (Rattus norvegicus, UniProt Q00195, G204E); channel current, agonist, inside-out patch clamp; Xenopus oocytes; holding +100 mV): 1.8 µM
CCC[C@H](C(=O)Nc1ccc(Br)cc1)n1nc(C)cc(Cc2cccc(OC)c2)c1=O — EC50 (FPR1 (Homo sapiens, UniProt P21462); calcium mobilization, agonist; HL-60 transfected with FPR1): 3 µM
CCCC(=O)Oc1c(S(=O)(=O)c2ccc(C)cc2)c(C)nn1C(C)(C)C — EC50 (MCOLN3; calcium flux, agonist, Fluo-8 calcium; HEK293 expressing TRPML3): 2.52 ± 0.83 µM
C[S+](C)[O-] — EC50 (fMet-Leu-Phe receptor; calcium signal, agonist, fluorescence): 97000 µM
CC1CCN(c2nc(C(F)(F)F)ccc2CNC(=O)[C@@H](C)c2ccc(NS(C)(=O)=O)c(F)c2)CC1 — EC50 (TRPV1; 45Ca2+ uptake, agonist; CHO expressing human TRPV1; baseline: capsaicin 1 µM maximal response): > 3 µM
O=S(=O)(NC1CCCCC1N1CCOCC1)c1ccc(Cl)cc1 (stereo not drawn) — EC50 (MCOLN3; calcium flux, agonist, Fluo-8 calcium; HEK293 expressing TRPML3): < 1 µM
Clc1ccc2[nH]c3c(N4CCC5(CC4)OCCO5)ncnc3c2c1 — EC50 (Vcp; ATPase activity, activator, Kinase-Glo; Vcp 50 nM, added: ATP 62.5 µM): 2.41 µM
COc1ccccc1C1CN=NC12CCCc1ccccc1C2=O (stereo not drawn) — EC50 (MCOLN3; calcium flux, agonist, Fluo-8 calcium; HEK293 expressing TRPML3): 3.74 ± 1.02 µM
CC1(C)C(/C=C/C=C2\N(CCCCCC(=O)NCCCC[C@H](NC(=O)N[C@H](CCC(=O)O)C(=O)O)C(=O)O)c3ccc(S(=O)(=O)O)cc3C2(C)C)=[N+](CCCCCC(=O)NCCCCn2cc(C[N+](C)(C)C[B-](F)(F)F)nn2)c2ccc(S(=O)(=O)O)cc21 — EC50 (FOLH1 (Homo sapiens, UniProt Q04609); binding, flow cytometry; PC3-PIP; 1 h, 37 °C): 0.00674 ± 0.00133 µM
CC1CCN(c2nc(C(F)(F)F)ccc2CNC(=O)NC(C)c2ccc(NS(C)(=O)=O)c(F)c2)CC1 (stereo not drawn) — EC50 (TRPV1; 45Ca2+ uptake, agonist; CHO expressing human TRPV1; baseline: capsaicin 1 µM maximal response): > 3 µM
Cc1cc(C)c(C2=NOC3C4CCC(C4)C23)c(C)c1 (stereo not drawn) — EC50 (MCOLN3; calcium flux, agonist, Fluo-8 calcium; HEK293 expressing TRPML3): 1.13 ± 0.16 µM
TWPKHFDKHTFYSILKLGKH-OH (C-acid) — EC50 (LRP1, cluster 4 (Homo sapiens, UniProt Q07954); binding, plate ELISA; peptide; biotinylated peptide, CL4-Fc fusion): 0.045 µM
O=C(OCCN(C1=NS(=O)(=O)c2ccccc21)c1ccc(Cl)cc1)c1ccco1 — EC50 (Vcp; ATPase activity, activator, Kinase-Glo; Vcp 50 nM, added: ATP 62.5 µM): 9 µM
Cc1cc(C2=C(c3ccccc3)C3CC(S(=O)(=O)Oc4ccc(O)cc4)C2[S+]3[O-])ccc1O (stereo not drawn) — EC50 (Estrogen receptor (ESR1, Homo sapiens, UniProt P03372); reporter gene, agonist, luciferase): 0.34 µM
CC(C)C[C@H](NC(=O)[C@@H](O)[C@H](N)Cc1ccccc1)C(=O)N1CCC[C@H]1C(=O)N1CCC[C@H]1C(=O)NCCOCCOCC(=O)NC[C@H](NC(=O)CN(C)C)C(=O)N[C@@H](CS)C(N)=O — EC50 (Aminopeptidase N (ANPEP, Homo sapiens, UniProt P15144); enzyme activity, inhibitor; HT-1080; 30 min, added: Ala-pNA 2 mM): 23.6 µM
CC1=NN(CC(=O)Nc2ccc(Br)cc2)C(=O)CC1c1ccccc1 (racemic) — EC50 (fMet-Leu-Phe receptor; calcium signal, agonist): 2.3 µM
O=C(/C=C/C=C/c1ccc2c(c1)OCO2)N1CCCCC1 — EC50 (NR1I2 (Homo sapiens, UniProt O75469); reporter gene, agonist, refers to: CYP3A4 promoter luciferase; HepG2 transfected with PXR; 24 h): 2.5 µM
CC(C)(C)c1ccc(-c2nc3n(c(=O)c2C#N)CCCS3)cn1 — EC50 (Glutamate NMDA receptor; Grin1/Grin2b (Grin1/Grin2b, Rattus norvegicus, UniProt P35439+Q00960); ion current, agonist, two-electrode voltage clamp; oocytes): 5 µM

Some of these lines once more:
CCCC(=O)OC[C@H](COP(=O)(O)O[C@@H]1[C@H](O)[C@H](O)[C@@H](OP(=O)(O)O)[C@H](OP(=O)(O)O)[C@H]1O)OC(=O)CCC — EC50 (Arf-GAP with SH3 domain, ANK repeat and PH domain-containing protein 1, PH domain (Asap1, Mus musculus, UniProt Q9QWY8); tryptophan fluorescence; pH 7.4): 120 µM
Nc1ncnc2c1ncn2[C@@H]1O[C@H](COP(=O)(O)OP(=O)(O)OP(=O)(O)O)[C@@H](O)[C@H]1O — EC50 (P2X purinoceptor 3, with TMEM163 (P2RX3, Homo sapiens, UniProt P56373); ion current, agonist, two-electrode voltage clamp; Xenopus oocytes; holding potential -30 mV, added: TMEM163 co-expression): 0.26 ± 0.03 µM
CC1CCN(c2nc(C(F)(F)F)ccc2CCNC(=O)C(C)c2ccc(NS(C)(=O)=O)c(F)c2)CC1 (stereo not drawn) — EC50 (TRPV1; 45Ca2+ uptake, agonist; CHO expressing human TRPV1; baseline: capsaicin 1 µM maximal response): > 3 µM
Nc1nc2c(ncn2[C@@H]2O[C@@H]3COP(=O)(O)O[C@H]3[C@H]2O)c(=O)[nH]1 — EC50 (Cnga2 (Rattus norvegicus, UniProt Q00195, G204E); channel current, agonist, inside-out patch clamp; Xenopus oocytes; holding +100 mV): 1.8 µM
CCC[C@H](C(=O)Nc1ccc(Br)cc1)n1nc(C)cc(Cc2cccc(OC)c2)c1=O — EC50 (FPR1 (Homo sapiens, UniProt P21462); calcium mobilization, agonist; HL-60 transfected with FPR1): 3 µM
